Results of several laboratories.
Lines come from different studies, so protocols differ. Several values in a cell are separate wells, animals, samples, runs or records. Numbers after ± are the reported error.

SMILES	tested on	assay	test system	conditions	scale	measurement	value
O=C(O)CCC(=O)O.[2H]C([2H])([2H])Oc1cc(C)c2[nH]ccc2c1CN1CC[C@@H](C2CC2)C[C@H]1c1ccc(C(=O)O)cc1	–	–	human, plasma	100 mg twice daily, day 1, multiple ascending dose, median	–	Tmax	3.5 h
C[Si](C)(C)O[Si](C)(C)C	–	–	–	concentration not given, temperature rise 30 °C	–	change in log KOW	0.35 log units
CC(=O)N[C@@H](CC(N)=O)C(=O)N[C@@H](CCCNC(=N)N)C(=O)N[C@@H](CC(C)C)C(=O)N[C@H]1CSSC[C@@H](C(=O)N[C@H](C(N)=O)[C@@H](C)O)NC(=O)[C@H](CCCNC(=N)N)NC(=O)[C@H](Cc2c[nH]cn2)NC(=O)[C@H](Cc2cccc3ccccc23)NC(=O)CNC(=O)[C@H](Cc2c[nH]c3ccccc23)NC(=O)[C@H](CC(=O)O)NC(=O)[C@H](CCC(N)=O)NC(=O)[C@H](Cc2cccc3ccccc23)NC(=O)[C@H](C(C)C)NC1=O	–	isocratic RP-HPLC, C18	32% acetonitrile, phosphate pH 7.4, 1% TFA	25 °C	–	retention factor	7.299 ± 0.005
CCO[C@H]1CCN(Cc2c(OC)cc(C)c3[nH]ccc23)[C@H](c2ccc(C(=O)O)cc2)C1	–	–	PNH patients, active haemolysis	oral, 50 mg, 4 weeks, treatment	–	incidence of abdominal pain	0%
Cc1cc(O)c2c(c1)C(=O)c1cc(O)cc(O)c1C2=O	HK-2 co-cultured with HepaRG	MTT	–	266.67 µM, 24 h	reference: untreated control	viability	20.4 ± 8.16%
CC[C@H]1CC[C@H](c2ccc(-c3ccc(F)c(F)c3)cc2)CC1	–	–	rat, fetus	5000 ng/mL in perfusate, high dose, mixture of 21 LCMs	–	fetal accumulation	0.98 ± 0.88 ng/g
COc1cc2c3cc1Oc1c(OC)c(OC)cc4c1[C@@H](Cc1ccc(O)c(c1)Oc1ccc(cc1)C[C@@H]3N(C)CC2)N(C)CC4	–	–	mouse plasma, K3EDTA	4 h, on ice	–	remaining compound	119%
Nc1ncn([C@H]2C[C@H](O)[C@@H](CO)O2)c(=O)n1	–	–	mouse plasma	1.2 ng/mL, 3 months, -80 °C, long-term stability, with THU	–	mean deviation from nominal	11.6%
COc1ccc2c(c1)CN(C(=O)CCN1CCC(Cc3ccccc3)CC1)CC[S@@+]2[O-]	–	–	male beagle dogs, plasma	intravenous, 8 mg/kg, day 1, 14-day toxicity study	–	mean plasma concentration	6440 ng/mL
CNCc1ccc(-c2[nH]c3cc(F)cc4c3c2CCNC4=O)cc1	–	–	patients	oral, 240 mg twice daily, all grades	–	abdominal distension incidence	0%
COc1cc2c3c(n(CCCN4CCOCC4)c(=O)c2cc1OC)-c1cc2c(cc1C3=O)OCO2	–	–	beagle dog, female, plasma	intravenous infusion, 215 mg/m^2, 1 h infusion	–	Vz	502 L/m² and 394 L/m²
CC(=O)N[C@@H](CNC(=O)c1cc(NC(=O)c2cc(NC(=O)c3nc(NC(=O)c4nccn4C)cn3C)cn2C)cn1C)CC(=O)Nc1cc(C(=O)Nc2cc(C(=O)Nc3cc(C(=O)Nc4cc(C(=O)NCCCN(C)CCCNC(=O)c5cccc(C(=O)O)c5)n(C)c4)n(C)c3)n(C)c2)n(C)c1	–	dynamic light scattering	0.1% DMSO in PBS	25 °C	–	critical aggregation concentration	4 µM
OC[C@H]1O[C@@H](c2ccc(Cl)c(Cc3ccc(O[C@H]4CCOC4)cc3)c2)[C@H](O)[C@@H](O)[C@@H]1O	–	–	Japanese type 1 diabetes patients, blood	10 mg, day 28	reference: baseline	change in Total cholesterol	0.17 mg/dL
CCc1cc(C(=O)NC)c2nccc(N3CCc4c(cc(Cn5ccnc5)cc4-c4cn(C)nc4C(F)(F)F)C3=O)c2c1	–	–	Sprague Dawley rats	oral, 100 mg/kg twice daily, 7 days	–	serum albumin	33.5 ± 1.89 g/L
O=C(Nc1nc2cccc(-c3ccc(CN4CCS(=O)(=O)CC4)cc3)n2n1)C1CC1	–	refers to: injection site haematoma	human rheumatoid arthritis patients	oral, 150 mg once daily, 4 weeks, regardless of relatedness	–	treatment-emergent adverse events	6.7%
O=C1NCCc2nc(OCc3cccc(F)c3)ccc21	–	refers to: Mydriasis	Sprague-Dawley rat male	oral, 100 mg/kg, 4 h	direction not given	Irwin test score	0
C=CCN1CC(=O)N2[C@@H](Cc3ccc(O)cc3F)C(=O)N(Cc3cccc(N4CC(N5CCN(CC)CC5)C4)n3)C[C@@H]2N1C(=O)NCc1ccccc1	–	–	advanced solid tumour patients	oral, 20 mg twice daily, any grade, dose-escalation	–	treatment-related vomiting	66.7%
COc1c(O)c(C)cc2c1C(=O)c1c(ccc(O)c1O)C2=O	HK-2 co-cultured with HepaRG	MTT	–	16.67 µM, 48 h	reference: untreated control	viability	86.2 ± 4.65%
CCCCCNC(=O)N1CCC(CN(Cc2ccc(Cl)cc2)Cc2ccc([N+](=O)[O-])s2)C1 (stereo not shown)	–	–	C57BL/6 mice	100 mg/kg twice daily, 7 days	–	mean corpuscular haemoglobin concentration	30.5 ± 1.3 g/dL

Excerpt of the above:
SMILES	tested on	assay	test system	conditions	scale	measurement	value
Cc1cc(O)c2c(c1)C(=O)c1cc(O)cc(O)c1C2=O	HK-2 co-cultured with HepaRG	MTT	–	266.67 µM, 24 h	reference: untreated control	viability	20.4 ± 8.16%
CC[C@H]1CC[C@H](c2ccc(-c3ccc(F)c(F)c3)cc2)CC1	–	–	rat, fetus	5000 ng/mL in perfusate, high dose, mixture of 21 LCMs	–	fetal accumulation	0.98 ± 0.88 ng/g
COc1cc2c3cc1Oc1c(OC)c(OC)cc4c1[C@@H](Cc1ccc(O)c(c1)Oc1ccc(cc1)C[C@@H]3N(C)CC2)N(C)CC4	–	–	mouse plasma, K3EDTA	4 h, on ice	–	remaining compound	119%
